Values quoted from earlier work that unrelated publications cite.
Each line is one published result; not all experiments were run side by side. ± marks the error that the study gave.
KDR: Vascular endothelial growth factor receptor 2 (KDR, Homo sapiens, UniProt P35968)
UniProt P35968, sequence (whole entry, looked up): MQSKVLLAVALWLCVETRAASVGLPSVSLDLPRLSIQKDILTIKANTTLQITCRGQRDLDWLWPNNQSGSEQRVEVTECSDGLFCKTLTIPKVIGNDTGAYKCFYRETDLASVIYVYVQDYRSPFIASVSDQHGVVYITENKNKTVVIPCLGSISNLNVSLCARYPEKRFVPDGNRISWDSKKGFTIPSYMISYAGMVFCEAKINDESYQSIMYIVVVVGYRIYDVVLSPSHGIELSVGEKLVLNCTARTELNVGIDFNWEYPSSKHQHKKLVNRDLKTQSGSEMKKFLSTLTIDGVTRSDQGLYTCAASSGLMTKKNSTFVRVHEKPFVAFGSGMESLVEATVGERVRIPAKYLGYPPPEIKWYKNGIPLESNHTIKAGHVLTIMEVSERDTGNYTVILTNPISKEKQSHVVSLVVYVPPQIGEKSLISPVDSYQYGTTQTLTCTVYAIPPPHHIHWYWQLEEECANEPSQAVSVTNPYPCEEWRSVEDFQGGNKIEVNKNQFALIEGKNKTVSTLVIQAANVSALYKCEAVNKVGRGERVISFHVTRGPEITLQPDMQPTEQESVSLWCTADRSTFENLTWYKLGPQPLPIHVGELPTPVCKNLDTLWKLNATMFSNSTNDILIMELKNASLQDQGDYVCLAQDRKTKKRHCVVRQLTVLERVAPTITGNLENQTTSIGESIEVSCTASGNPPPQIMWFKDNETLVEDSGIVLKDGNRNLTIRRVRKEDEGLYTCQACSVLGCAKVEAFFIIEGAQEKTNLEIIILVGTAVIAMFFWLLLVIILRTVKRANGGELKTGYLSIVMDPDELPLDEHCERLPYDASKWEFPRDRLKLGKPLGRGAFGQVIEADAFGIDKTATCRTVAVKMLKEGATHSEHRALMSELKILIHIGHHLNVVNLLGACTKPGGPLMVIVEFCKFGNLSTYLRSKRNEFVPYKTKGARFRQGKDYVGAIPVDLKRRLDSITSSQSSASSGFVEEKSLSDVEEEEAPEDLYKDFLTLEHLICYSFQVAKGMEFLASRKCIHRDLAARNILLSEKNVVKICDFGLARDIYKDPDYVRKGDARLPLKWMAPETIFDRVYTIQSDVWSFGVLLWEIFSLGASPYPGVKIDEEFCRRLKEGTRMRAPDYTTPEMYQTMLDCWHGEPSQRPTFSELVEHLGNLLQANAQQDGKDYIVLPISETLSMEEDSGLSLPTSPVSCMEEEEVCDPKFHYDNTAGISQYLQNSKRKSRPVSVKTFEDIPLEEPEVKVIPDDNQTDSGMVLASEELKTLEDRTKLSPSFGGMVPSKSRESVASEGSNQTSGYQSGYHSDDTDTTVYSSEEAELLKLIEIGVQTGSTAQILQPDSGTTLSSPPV
Si: Sucrase-isomaltase, intestinal (Si, Rattus norvegicus, UniProt P23739)
UniProt P23739, sequence (whole entry, looked up): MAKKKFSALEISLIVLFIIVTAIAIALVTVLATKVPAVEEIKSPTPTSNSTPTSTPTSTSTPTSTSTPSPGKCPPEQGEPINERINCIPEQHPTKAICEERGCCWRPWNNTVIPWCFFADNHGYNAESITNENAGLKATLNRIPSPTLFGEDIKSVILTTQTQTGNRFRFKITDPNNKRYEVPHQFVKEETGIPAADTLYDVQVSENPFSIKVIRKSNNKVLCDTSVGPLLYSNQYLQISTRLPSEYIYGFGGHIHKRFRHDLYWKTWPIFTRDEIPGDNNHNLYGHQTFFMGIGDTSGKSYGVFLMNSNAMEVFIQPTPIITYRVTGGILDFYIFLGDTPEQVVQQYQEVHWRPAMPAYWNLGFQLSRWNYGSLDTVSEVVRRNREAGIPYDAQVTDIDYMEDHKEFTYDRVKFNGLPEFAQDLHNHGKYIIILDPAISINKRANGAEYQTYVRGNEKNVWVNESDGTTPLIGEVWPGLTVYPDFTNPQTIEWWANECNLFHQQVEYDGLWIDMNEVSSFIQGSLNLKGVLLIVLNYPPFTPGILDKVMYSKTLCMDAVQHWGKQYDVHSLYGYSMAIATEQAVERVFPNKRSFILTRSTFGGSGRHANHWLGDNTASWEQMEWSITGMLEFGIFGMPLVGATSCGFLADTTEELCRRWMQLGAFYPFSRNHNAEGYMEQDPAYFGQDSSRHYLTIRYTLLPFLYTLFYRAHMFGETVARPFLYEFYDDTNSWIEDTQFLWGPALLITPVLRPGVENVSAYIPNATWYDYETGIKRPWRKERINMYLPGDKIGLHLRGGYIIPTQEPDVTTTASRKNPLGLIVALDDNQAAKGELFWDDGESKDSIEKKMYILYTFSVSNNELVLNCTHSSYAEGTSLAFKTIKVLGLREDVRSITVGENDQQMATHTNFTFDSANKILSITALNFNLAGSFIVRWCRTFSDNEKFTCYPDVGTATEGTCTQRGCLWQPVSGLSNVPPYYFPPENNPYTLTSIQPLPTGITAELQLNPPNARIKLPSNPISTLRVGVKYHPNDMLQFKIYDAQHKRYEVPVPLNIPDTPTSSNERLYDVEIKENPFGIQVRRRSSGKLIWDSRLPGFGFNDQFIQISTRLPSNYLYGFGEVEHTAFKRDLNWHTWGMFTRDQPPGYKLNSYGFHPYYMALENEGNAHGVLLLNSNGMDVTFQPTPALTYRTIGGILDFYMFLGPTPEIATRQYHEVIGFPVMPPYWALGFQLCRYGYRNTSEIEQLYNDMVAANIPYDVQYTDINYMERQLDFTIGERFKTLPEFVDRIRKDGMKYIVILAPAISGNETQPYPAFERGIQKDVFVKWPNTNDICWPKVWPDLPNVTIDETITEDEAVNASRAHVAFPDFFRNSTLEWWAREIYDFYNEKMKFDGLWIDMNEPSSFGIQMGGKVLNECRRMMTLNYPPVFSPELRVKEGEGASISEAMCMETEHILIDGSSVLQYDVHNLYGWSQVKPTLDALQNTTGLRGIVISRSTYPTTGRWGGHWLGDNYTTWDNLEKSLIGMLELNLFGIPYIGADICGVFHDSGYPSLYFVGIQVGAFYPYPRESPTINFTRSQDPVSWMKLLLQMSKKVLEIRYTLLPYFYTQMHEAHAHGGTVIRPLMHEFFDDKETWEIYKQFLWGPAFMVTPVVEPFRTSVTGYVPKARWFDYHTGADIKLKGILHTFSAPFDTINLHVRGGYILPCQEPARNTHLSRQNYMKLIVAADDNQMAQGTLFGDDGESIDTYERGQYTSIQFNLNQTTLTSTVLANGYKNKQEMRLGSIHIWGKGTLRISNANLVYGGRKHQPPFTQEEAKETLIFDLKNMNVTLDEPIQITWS
UniProt Q9NXA8, sequence (whole entry, looked up): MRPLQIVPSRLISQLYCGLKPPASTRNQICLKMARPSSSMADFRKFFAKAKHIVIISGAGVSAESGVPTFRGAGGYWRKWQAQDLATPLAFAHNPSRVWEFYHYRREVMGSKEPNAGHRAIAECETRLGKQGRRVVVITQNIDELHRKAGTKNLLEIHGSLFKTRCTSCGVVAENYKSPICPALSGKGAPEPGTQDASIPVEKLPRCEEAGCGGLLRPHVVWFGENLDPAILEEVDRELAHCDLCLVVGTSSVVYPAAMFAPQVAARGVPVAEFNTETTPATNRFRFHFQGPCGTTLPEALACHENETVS
UniProt P09874, sequence (whole entry, looked up): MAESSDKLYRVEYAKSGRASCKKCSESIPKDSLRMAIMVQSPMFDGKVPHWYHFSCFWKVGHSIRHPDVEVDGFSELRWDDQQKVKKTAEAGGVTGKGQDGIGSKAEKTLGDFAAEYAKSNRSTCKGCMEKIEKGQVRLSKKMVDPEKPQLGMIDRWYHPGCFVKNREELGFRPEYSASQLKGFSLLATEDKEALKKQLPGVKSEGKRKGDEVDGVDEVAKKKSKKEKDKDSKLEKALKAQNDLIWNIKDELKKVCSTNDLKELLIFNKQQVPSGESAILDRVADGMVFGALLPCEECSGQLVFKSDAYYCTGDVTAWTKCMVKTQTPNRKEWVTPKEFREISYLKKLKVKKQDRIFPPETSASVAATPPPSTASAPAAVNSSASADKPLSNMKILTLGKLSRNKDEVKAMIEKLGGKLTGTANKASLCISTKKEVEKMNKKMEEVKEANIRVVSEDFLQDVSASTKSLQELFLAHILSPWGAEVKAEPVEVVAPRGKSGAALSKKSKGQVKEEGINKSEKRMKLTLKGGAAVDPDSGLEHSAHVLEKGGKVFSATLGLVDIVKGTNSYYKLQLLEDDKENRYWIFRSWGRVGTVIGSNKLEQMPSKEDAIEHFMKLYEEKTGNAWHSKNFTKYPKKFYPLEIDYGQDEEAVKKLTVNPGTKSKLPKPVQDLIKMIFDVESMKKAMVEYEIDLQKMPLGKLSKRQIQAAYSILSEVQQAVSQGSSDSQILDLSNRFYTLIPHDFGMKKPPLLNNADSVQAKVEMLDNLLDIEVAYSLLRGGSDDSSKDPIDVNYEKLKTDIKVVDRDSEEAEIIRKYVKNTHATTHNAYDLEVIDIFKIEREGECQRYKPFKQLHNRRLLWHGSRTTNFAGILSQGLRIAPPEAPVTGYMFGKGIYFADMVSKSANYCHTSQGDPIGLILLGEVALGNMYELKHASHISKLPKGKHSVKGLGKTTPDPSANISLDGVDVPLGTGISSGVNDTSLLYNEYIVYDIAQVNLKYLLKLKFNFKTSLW
UniProt O77389, sequence (whole entry, looked up): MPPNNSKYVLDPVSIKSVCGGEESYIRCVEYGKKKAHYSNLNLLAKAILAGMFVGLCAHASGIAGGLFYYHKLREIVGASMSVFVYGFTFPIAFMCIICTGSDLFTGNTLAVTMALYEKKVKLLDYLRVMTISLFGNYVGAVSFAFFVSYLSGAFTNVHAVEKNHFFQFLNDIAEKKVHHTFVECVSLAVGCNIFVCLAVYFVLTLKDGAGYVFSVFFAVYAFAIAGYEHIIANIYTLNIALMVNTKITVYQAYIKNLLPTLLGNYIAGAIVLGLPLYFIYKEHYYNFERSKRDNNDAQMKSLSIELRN
UniProt P21741, sequence (whole entry, looked up): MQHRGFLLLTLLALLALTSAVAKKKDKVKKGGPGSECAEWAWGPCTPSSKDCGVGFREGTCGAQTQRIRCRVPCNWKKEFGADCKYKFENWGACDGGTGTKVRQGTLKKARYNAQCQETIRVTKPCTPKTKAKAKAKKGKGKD

For `COc1cccc2cc(C(=O)c3cn(-c4ccc(Cl)cc4)nn3)c(=O)oc12`, the IC50 was 4.11 µM (alpha-amylase; inhibitor).
`C=CCSc1nnc(-c2cc3ccccc3n2CC=C)n1-c1ccccc1` has an IC50 of 0.33 µM (PARP1 (Homo sapiens, UniProt P09874); inhibitor).
For `O=c1oc2ccccc2c(O)c1C(c1ccc(OCc2cn(Cc3ccccc3Cl)nn2)cc1)c1c(O)c2ccccc2oc1=O`, the IC50 was 13 ± 1.5 µM (alpha-glucosidase).
For `COc1ccc(O[C@@H]2O[C@H](COS(=O)(=O)O)[C@H](OS(=O)(=O)O)[C@H](O[C@@H]3O[C@H](C(=O)O)[C@@H](O[C@@H]4O[C@H](COS(=O)(=O)O)[C@H](OS(=O)(=O)O)[C@H](O[C@@H]5O[C@@H](C(=O)O)[C@@H](OS(=O)(=O)O)[C@H](O)[C@H]5OS(=O)(=O)O)[C@H]4NC(C)=O)[C@H](O)[C@H]3OS(=O)(=O)O)[C@H]2NC(C)=O)cc1`, the IC50 was 8 µM (Midkine (Homo sapiens, UniProt P21741); binding to tetrasaccharide).
With `O=C(NO)c1ccc(Cn2c3c(c4cc(F)ccc42)SC(c2ccccc2)C3)s1` (stereo not drawn) the IC50 was 2.03 ± 0.28 µM (HDAC8 (Homo sapiens, UniProt Q9BY41); inhibitor; added: Fluor-de-Lys substrate 50 µM).
`Fc1ccc(Nc2nc(-c3ccc(Cl)cc3)nc3ccc(Br)cc23)cc1` has an IC50 of 0.0377 µM (EGFR (Homo sapiens, UniProt P00533)).
With `C#CCCCC1(CCC(=O)N[C@@H](CCCCNC(=S)CCCCCCCCCCCCC)C(=O)N[C@@H](C)C(=O)N[C@@H](C)C(=O)OC)N=N1` the IC50 was > 2000 µM (SIRT3 (Homo sapiens, UniProt Q9NTG7); deacetylase activity, inhibitor, HPLC; added: H3K9ac substrate).
For `Cc1c(C(=O)NNC(=S)Nc2ccc(Cl)cc2)nnn1Cc1nc2ccccc2[nH]1`, the IC50 was 2.52 µM (topoisomerase II; enzyme activity, inhibitor).
`C/C(=N\NC(=O)c1ccc([N+](=O)[O-])cc1)c1ccc(NC(=O)c2cccnc2)cc1` gave an IC50 of 0.24 µM (KDR; kinase activity, inhibitor).
`C#CCCCC1(CCC(=O)N[C@@H](CCCCNC(=S)CCC(=O)O)C(=O)N[C@@H](C)C(=O)N[C@@H](C)C(=O)OC)N=N1` gave an IC50 of > 5000 µM (SIRT6 (Homo sapiens, UniProt Q8N6T7); deacetylase activity, inhibitor, HPLC; added: H3K9ac substrate).
`Cc1ccc(C2=NN=C(NC(=S)Nc3ccc(Cl)cc3)SC2)cc1` has an IC50 of 0.11 ± 0.01 µM (KDR).
For `CC(C)[C@H](NC(=O)[C@H](C)NC(=O)[C@H](Cc1c[nH]c2ccccc12)NC(=O)[C@H](Cc1c[nH]cn1)NC(=O)CCc1ccccc1)C(=O)N[C@H](C)C(=O)N[C@@H](Cc1c[nH]cn1)C(=O)N1CCC[C@@H]1CN[C@@H](Cc1ccccc1)C(N)=O`, the IC50 was 0.004 to 0.01 µM (GRP receptor, human; human lung carcinoma or T47D cells).
`CCC(=O)Nc1nc2ccc(-c3ccc4ncn(CCN5CCOCC5)c(=O)c4c3)cc2[nH]1` has an IC50 of 0.0219 µM (Aurora A kinase).
For `Cc1c(O)c(=O)ccn1-c1cccc(C(=O)N/N=C/c2cc(Br)ccc2O)c1`, the IC50 was 25.3 µM (tyrosinase; enzyme activity, inhibitor).
For `COc1c(NC(=O)c2ccc(NC(=O)c3ccc(NC(=O)[C@H](CC#N)NC(=O)c4ccc(NC(=O)/C(C)=C/c5ccc(O)cc5)cc4)cc3)c(OC)c2O)ccc(C(=O)O)c1O`, the IC50 was 0.04 µM (DNA gyrase; concentration not given).
`CCC1SCC(=O)N1c1c(C#N)c2n(c1C(=O)Nc1ccccc1)CCC2` (stereo not drawn) has an IC50 of 0.63 µM (CDK2; enzyme activity, inhibitor).
For `O=C(O)CNC(=O)c1ccc(NC(=O)c2cc(Br)c(Br)[nH]2)cc1`, the IC50 was 0.45 µM (gyrB (Escherichia coli, UniProt P0AES6); enzyme activity, inhibitor).
The IC50 of `COc1ccc(C(=O)/C=C(\O)C(F)(F)C(F)(F)F)cn1` is reported as 0.11 ± 0.01 µM (Formate-nitrite transporter (Plasmodium falciparum, UniProt O77389); L-lactate transport; yeast expressing wild type).
The IC50 of `COc1ccc(C2=C(C#N)C(OCC(=O)NNC(=S)Nc3cccc([N+](=O)[O-])c3)NC(c3nc4ccccc4[nH]3)=C2)cc1` (stereo not drawn) is reported as 0.94 µM (DNA gyrase; enzyme activity).
For `C[C@@H]1COCCN1c1nc(-c2cnc(N)nc2)nc2c1C[C@@H]1COCCN21`, the IC50 was 0.077 ± 0.0068 µM (Akt pSer473; phosphorylation, inhibitor; A2058).
The IC50 of `CN1C(=O)/C(=N\CCc2noc(-c3ccc(F)cc3)n2)c2ccccc21` is reported as 0.0356 ± 0.00156 µM (VEGFR-2; enzyme activity).
`C#CCOc1ccc(C(=O)c2ccc(C(=O)N[C@@H](CCCCNC(=S)CCCCCCCCCCCCC)C(=O)N[C@@H](C)C(=O)N[C@@H](C)C(=O)OC)cc2)cc1` has an IC50 of > 5000 µM (SIRT5 (Homo sapiens, UniProt Q9NXA8); enzyme activity, inhibitor).
`O=c1cc(N2CCOCC2)oc2c(-c3cccc4c3sc3ccccc34)cccc12` has an IC50 of 0.014 µM (DNA-dependent protein kinase; enzyme activity, inhibitor).
The IC50 of `Cc1ccccc1CO[C@@H](CO)[C@H](O)C[S@@+]1C[C@@H](O)[C@H](O)[C@H]1CO` is reported as 0.41 µM (Si; sucrase activity, inhibitor; rat intestinal disaccharidases).
With `Nc1c2cc(Br)n3c2nc[n+]1[C@@H]1O[C@H](COP(=O)(O)OP(=O)([O-])OC[C@H]2O[C@@H]3[C@H](O)[C@@H]2O)[C@@H](O)[C@H]1O` the IC50 was 0.73 µM (cADPR receptor, sea urchin; antagonist; sea urchin egg homogenate).
`N#Cc1ccc(O)c(-c2nc(NCc3cnccn3)c3ccccc3n2)c1` gave an IC50 of 0.0179 µM (EGFR Del19/T790M/C797S; kinase activity, inhibitor).
For `C[C@@H](c1cc(OCC(F)F)ccn1)n1cnc2c(N)nc(Cl)nc21`, the IC50 was > 10 µM (PDE7A (Homo sapiens, UniProt Q13946); enzyme activity).
The IC50 of `O=[N+]([O-])c1ccccc1CO[C@@H](CO)[C@H](O)C[S@@+]1C[C@@H](O)[C@H](O)[C@H]1CO` is reported as 0.042 µM (Si; sucrase activity, inhibitor; rat intestinal disaccharidases).
`S=C(Nc1ccccc1)Nc1ccc(Nc2nc(/C=C/c3ccc(Br)cc3)nc3ccccc23)cc1` has an IC50 of 0.06 µM (KDR).
The IC50 of `O=C(Cc1ccc(O)cc1)N/N=C1\C(=O)Nc2ccc(Cl)cc21` is reported as 0.007 µM (c-Met kinase).
`Cc1ccc2oc(=O)c(-c3nc4cnccc4[nH]3)cc2c1` has an IC50 of 0.15 ± 0.0341 µM (Bifunctional arginine demethylase and lysyl-hydroxylase JMJD6 (Homo sapiens, UniProt Q6NYC1); demethylase activity, inhibitor).
`OC[C@H](OCc1ccccc1)[C@H](O)C[S@@+]1C[C@@H](O)[C@H](O)[C@H]1CO` gave an IC50 of 0.44 µM (Si; sucrase activity, inhibitor; rat intestinal disaccharidases).
`N=C(N)N/N=C1\CCc2c(C(=N)N)cccc21` — result for IC50: “increased” (human AdoMetDC F233A; inhibitor; baseline: wild type).

Repeated from above:
The IC50 of `Cc1ccccc1CO[C@@H](CO)[C@H](O)C[S@@+]1C[C@@H](O)[C@H](O)[C@H]1CO` is reported as 0.41 µM (Si; sucrase activity, inhibitor; rat intestinal disaccharidases).
`N=C(N)N/N=C1\CCc2c(C(=N)N)cccc21` — result for IC50: “increased” (human AdoMetDC F233A; inhibitor; baseline: wild type).
For `C[C@@H](c1cc(OCC(F)F)ccn1)n1cnc2c(N)nc(Cl)nc21`, the IC50 was > 10 µM (PDE7A (Homo sapiens, UniProt Q13946); enzyme activity).
`CCC(=O)Nc1nc2ccc(-c3ccc4ncn(CCN5CCOCC5)c(=O)c4c3)cc2[nH]1` has an IC50 of 0.0219 µM (Aurora A kinase).
